Measurements pooled from the literature.
Protocols differ between the studies behind these lines. “And” joins repeats or separate records; there may be more than shown. Numbers after ± are the reported error.
UniProt P37231, sequence (whole entry, looked up): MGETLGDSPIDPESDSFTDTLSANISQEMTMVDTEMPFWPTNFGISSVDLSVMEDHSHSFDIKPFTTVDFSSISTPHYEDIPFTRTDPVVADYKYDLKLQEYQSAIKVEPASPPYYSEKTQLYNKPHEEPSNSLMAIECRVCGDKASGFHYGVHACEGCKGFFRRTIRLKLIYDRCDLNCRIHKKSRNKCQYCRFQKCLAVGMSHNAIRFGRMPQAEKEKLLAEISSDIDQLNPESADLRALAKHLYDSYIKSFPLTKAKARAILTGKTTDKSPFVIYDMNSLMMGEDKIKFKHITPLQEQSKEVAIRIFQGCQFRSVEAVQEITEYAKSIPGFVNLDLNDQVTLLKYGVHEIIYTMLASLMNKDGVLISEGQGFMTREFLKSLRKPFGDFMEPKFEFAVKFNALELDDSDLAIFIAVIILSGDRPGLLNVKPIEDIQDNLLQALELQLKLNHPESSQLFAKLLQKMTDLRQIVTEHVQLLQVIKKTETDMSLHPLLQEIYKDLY

| Structure (SMILES) | target or system | test | system | conditions | scale | measurement | result |
| --- | --- | --- | --- | --- | --- | --- | --- |
| O=C(Nc1cnccc1-c1ccc([18F])nc1)c1ccnc(NC(=O)C2CC2)c1 | – | – | mice, transgenic, GSK-3β, early-stage, small intestine | intravenous, dose not given, 120 min, together with: tariquidar 15 mg/kg i.v. pre-dose | – | SUV | 1.7 |
| CCCCCCCOc1ccc(CC[C@](N)(CO)COP(=O)(O)O)cc1C(F)(F)F | – | – | healthy male humans, plasma | 0.25 mg amiselimod, day 21, median | – | Tmax | 8.01 h |
| Cc1cccc(Cn2ncc3c4cc(F)c(CN(C)C)cc4n(C)c3c2=O)n1 | – | – | Dutch-belted rabbit, plasma | intravitreal, 100 µM vitreous, 1.00 days | – | plasma concentration | not detected |
| COc1ccnc(C(=O)N[C@H]2COC(=O)[C@H](Cc3ccccc3)[C@@H](OC(=O)C(C)C)[C@H](C)OC2=O)c1O | – | aerobic dark soil incubation | sandy loam soil | 20 °C, modelling endpoint | – | DT50 | 29.3 days |
| C=CC(=O)Nc1cc(Nc2nccc(-c3cn(C4CC4)c4ccccc34)n2)c(OC)cc1N(C)CCNC | – | freeze-thaw stability | rat plasma | 1 ng/mL, three freeze-thaw cycles | baseline: nominal concentration | relative error | -12.4% |
| CN1C(=O)[C@@H](Cc2ccc(O)c(I)c2)NC(=O)CNC(=O)[C@H](Cc2ccc3ccccc3c2)NC(=O)[C@H](CCCNC(=N)N)NC(=O)[C@H]1CCCNC(=O)c1ccc(CNC(=O)CN2CCN(CC(=O)O)CCN(CC(=O)O)CCN(CC(=O)O)CC2)cc1 [lutetium-177 labelled] | – | 2 | human, extrapolated from mouse, Lower large intestine wall | – | – | total absorbed dose | 0.022 mGy/MBq |
| CC(C)(O)c1ncc([S@](N)(=O)=NC(=O)Nc2c3c(cc4c2CCC4)CCC3)s1 | – | item: nervous system disorders | healthy human volunteers | oral, 25 mg twice daily, 14 days, enteric-coated tablet | – | subjects with adverse events | 13% |
| C=C(NC(=O)c1csc(-c2nc3c(cc2O)-c2nc(cs2)C(=O)NC(C(C)O)C(=O)NC(=C(C)OC)c2nc(cs2)C(=O)NC2c4nc(cs4)C(=O)NC(COC(=O)c4c5c6c(cccc6n4O)COC(=O)C(OC4CC(C)(O)C(N(C)C)C(C)O4)C2OC5)c2nc-3cs2)n1)C(N)=O (stereo not drawn) | – | – | ICR mice, Streptococcus pneumoniae ATCC 49169 infected, immunocompromised, blood | intravenous, 8 mg/kg/day once daily | – | MRT(0-t) | 2.94 h |
| CN(O)C(=O)CCC(=O)NCCCN(CCCCN(CCCNC(=O)CCC(=O)N(C)O)C(=O)CCC(=O)N(C)O)C(=O)CCC(=O)N(C)O.[89Zr] | – | radio-TLC | aqueous buffer | 3 d, pH 5, 37 °C, 89Zr-labelled complex, together with: DTPA 1000-fold excess | – | intact complex | 83.1 ± 4% |
| Cc1ccc(CN2C(=O)/C(=N\c3ccc(Cl)cc3Br)c3ccccc32)cc1 | – | – | mouse, blood | 150 mg/kg | – | granulocytes | 30.8 ± 15.8% |
| O[C@@H]1[C@@H](O)[C@H](n2cc(-c3ccc(-c4nncnn4)cc3)nn2)O[C@H](C[18F])[C@H]1O | – | – | BALB/c nude mouse, LS174T xenograft | intravenous, 1 h, together with: CC49-TCO 72 h before | – | tumour to muscle ratio | 4.6 |
| COCC1CN(C2CCN(c3cc(OC)c(Nc4ncc(Br)c(Nc5ccc6c(c5P(C)(C)=O)OCCO6)n4)cc3C)CC2)C1 | – | first-in-human trial | human | oral, 30 mg once daily | treatment-related | serious adverse events | 0% |
| CCCC[C@H](NC(=O)CNC(=O)CNC(=O)[C@H](CCCCNC(=O)[C@H](CC(N)=O)NC(=O)C(C)c1ccc(CC(C)C)cc1)NC(=O)CN1CCN(CC(=O)O)CCN(CC(=O)O)CCN(CC(=O)O)CC1)C(=O)N[C@H]1CC(=O)NCCCC[C@@H](C(N)=O)NC(=O)[C@H](Cc2c[nH]c3ccccc23)NC(=O)[C@H](CCCNC(=N)N)NC(=O)[C@@H](Cc2ccccc2)NC(=O)[C@H](Cc2c[nH]cn2)NC1=O (stereo partly drawn) [lutetium-177 labelled] | – | – | C57 mice, tumour | 2 h | baseline: lung | tumour-to-tissue ratio | 17.7 |
| Nc1ncc(-c2cc(-c3cnn(CC(F)(F)F)c3)ncc2F)nc1C(=O)NC1CNCC(F)C1 (stereo not drawn) | BRAF | KINOMEscan | – | 1 µM | baseline: DMSO control | remaining binding | 58% |
| C=CC(=O)Nc1cc(Nc2nccc(-c3c[nH]c4ccccc34)n2)c(OC)cc1N(C)CCN(C)C | – | storage stability | human dried blood spots | 72 h, on ice, low QC level | – | recovery | 69.9% |
| COC1CN([C@H]2CC[C@H]([C@@]3(C)Oc4c(Cl)cc(C(=O)NCc5c(SC)cc(C)[nH]c5=O)c(C)c4O3)CC2)C1 | – | RNA-seq, item: FHIP1A | human, whole blood | dose not given, 24 h | baseline: pretreatment baseline | log2 fold change | 2.7 |
| O=C(NS(=O)(=O)c1cccs1)c1cc2ccccc2n1Cc1ccc(Br)c2ccccc12 | – | – | KM mouse, chronic hyperuricaemia model | dose not given, day 10 | – | body weight | 30.1 g and 32.6 g and 25 g and 28.9 g and 29.5 g and 29.4 g |
| CN1CCC[C@]1(C)/C=C/S(=O)(=O)NC(=O)Nc1c2c(cc3c1CCC3)CC=C2 | – | – | human, plasma | oral, 12.5 mg twice daily of parent drug, day 14, metabolite of dosed drug | – | Tmax at first steady-state dose | 2.5 h |

| Structure (SMILES) | target or system | test | system | conditions | scale | measurement | result |
| --- | --- | --- | --- | --- | --- | --- | --- |
| Cc1c(Cc2cccc(OC(C)(C)C(=O)O)c2)c2ccc(C(=O)N[C@@H](C)c3cccc(Br)c3)cc2n1C | Peroxisome proliferator-activated receptor gamma, ligand-binding domain (PPARG, Homo sapiens, UniProt P37231) | reporter gene, luciferase reporter | HEK293T, Gal4-PPARγ LBD | – | – | IC50 | 4.52 µM |
| CCCC[C@H]1C(=O)N(C)[C@@H](CCCC)C(=O)N[C@@H](CCCCNC(=S)Nc2ccc(CN3CCN(CC(=O)O)CCN(CC(=O)O)CC3)cc2)C(=O)N[C@H](C(=O)NCC(N)=O)CSCC(=O)N[C@@H](Cc2ccc(O)cc2)C(=O)N(C)[C@@H](C)C(=O)N[C@@H](CC(N)=O)C(=O)N2CCC[C@H]2C(=O)N[C@@H](Cc2cnc[nH]2)C(=O)N[C@@H](CCC(=O)O)C(=O)N2C[C@H](O)C[C@H]2C(=O)N[C@@H](Cc2c[nH]c3ccccc23)C(=O)N[C@@H](CO)C(=O)N[C@@H](Cc2cn(CC(=O)O)c3ccccc23)C(=O)N1C [fluorine-18 labelled] | – | – | T24 subcutaneous xenograft, NSG mouse, tumour | intravenous, 60 min | – | tumour uptake | 6.16 ± 3.28 %ID/g |
| COC(=O)C(C)n1nc(Cn2cc3cc(OCC[18F])c(Cl)cc3n2)c2ccccc2c1=O (racemic) | – | – | rat, brain | 60 min | – | radiometabolite | 33% |
| COc1cc(OC)c(/N=N/c2ccc(C(=O)NO)cc2)c(OC)c1 | – | – | Water, DMSO 0.5% | 50 µM, E isomer, after 370 nm irradiation | – | thermal half-life | 4.3 min |
| CCC1CNC(CC)CN(C(C(=O)[O-])c2ccc(C(=O)[O-])cc2)C(CC)CN(CC(=O)[O-])C(CC)CN1.[Mn+2] (stereo not drawn) | – | ICP-MS | BALB/c mouse, blood | intravenous, 0.05 mmol/kg, 30 min, without anaesthesia | – | Mn content | 0.23 ± 0.11 µg/g |
| N=C(N)NCCC[C@@H]1NC(=O)[C@H](CCCNC(=N)N)NC(=O)[C@@H](CCCNC(=N)N)NC(=O)[C@@H](CCCNC(=N)N)NC(=O)[C@@H](C(c2ccccc2)c2ccccc2)NC(=O)[C@H](Cc2c[nH]c3ccccc23)NC(=O)[C@@H](C(c2ccccc2)c2ccccc2)NC1=O | – | LC-MS | human plasma | 6 h | – | remaining peptide | 59.1% |
| Cc1cc(C)n(CCN(CCN)CCCCCCNC(=O)[C@@H](N)Cc2c[nH]cn2)n1.[99Tc+].[C-]#[O+].[C-]#[O+].[C-]#[O+] | – | – | BALB/c nude mice A549 xenograft | intravenous, 24 h | baseline: tumour over blood | tumour-to-tissue ratio | 4.8 |
| CC[C@H](C)[C@@H]1NC(=O)[C@H](Cc2ccc(O)cc2)NC(=O)CCCSC[C@@H](C(=O)N(CC(=O)N[C@@H](CC(C)C)C(=O)NCC(N)=O)Cc2ccc(F)cc2)NC(=O)[C@H](CC(N)=O)NC(=O)[C@H](CCC(N)=O)NC1=O | – | – | human | intranasal, 50 µg repeated doses | – | serious adverse events | 0% |
| COc1cccc(OC)c1-c1cc(C(=O)NC2(C(=O)O)C3CC4CC(C3)CC2C4)nn1-c1ccc(C(=O)NCCNC(=O)[C@H](CCCCNC(=O)[C@H](CC(C)C)NC(=O)C2OC2C(=O)O)NC(=O)CN2CCN(CC(=O)[O-])CCN(CC(=O)[O-])CCN(CC(=O)[O-])CC2)cc1C(C)C.[177Lu+3] (mixture of isomers) | – | – | mouse, HT-29 xenograft | 24 h post injection, biodistribution | baseline: tumour over heart uptake | tumour-to-heart ratio | 19 |
| CCCC[C@H](OC(C)=O)c1ccccc1C(=O)O | – | – | Sprague-Dawley rats, both sexes, whole blood | intravenous, 20 mg/kg single dose | – | Vss | 1.73 ± 0.356 L/kg |
| CC(=O)c1c(C)c2cnc(Nc3ccc(N4CCNCC4)cn3)nc2n(C2CCCC2)c1=O | – | – | G-Smo medulloblastoma mice (hGFAP-Cre x SmoM2), forebrain | intraperitoneal, 25 mg/kg single, dosed at postnatal day P10 | – | AUC(0-t) | 46300 ng·h/mL |
| C=CC(=O)Nc1cccc(Cn2ncc3cnc(Nc4cnn(CCOC)c4)nc32)c1 | CSNK1E human | binding, KINOMEscan | – | 100 nM | lower = stronger binding | percent of control | 100% |
| CC(C)(C)C(=O)Nc1ccc2[nH]c(CN3CCC(N(CCCN4CCOCC4)CC4OC(n5cnc6c(N)ncnc65)C(O)C4O)CC3)nc2c1 (stereo not drawn) | – | – | male Sprague-Dawley rat, plasma | intravenous, 20 mg/kg, 1 h | – | concentration | 370 ng/mL |
| C=Cc1c(C)c2cc3nc(c(CC(=O)OCCOCCOCCOC)c4[nH]c(cc5nc(cc1[nH]2)C(C)=C5CC)c(C)c4C(=O)O)[C@@H](CCC(=O)OCCOCCOCCOC)[C@@H]3C | – | LC-MS | methanol-water 9:1 | 1 h, pH 2.0 | – | compound loss | 39% |
| C=CC(=O)Nc1cc(Nc2nccc(-c3cn(C)c4ccccc34)n2)c(OC)cc1N(C)CCNC | – | storage stability | human dried blood spot | 30 d, -80 °C, LQC level | – | recovery | 99.3% |
| Cc1nc(N)nc2c1C(=O)N[C@@H](c1ccc(F)cc1-c1cccc(O[11CH3])n1)C2 | – | ex vivo biodistribution | mice, U87 subcutaneous xenograft, plasma | 60 min post-injection, baseline, vehicle pre-treatment | – | SUV | 0.3 ± 0.1 |
| C#CC(C)NC(=O)C(CC(C)(C)F)NC(c1ccc(-c2ccc(S(C)(=O)=O)cc2)cc1)C(F)(F)F (stereo not drawn) | – | – | PBS | 100 µM, 23 h, pH 7.45, 37 °C, together with: cysteine 10 mM | – | cysteine adduct formation | < 1% |
| CC(=O)N[C@H](CC(=O)O)C(=O)N[C@H](Cc1c[nH]c2ccccc12)C(=O)N[C@H](Cc1ccccc1)C(=O)N[C@H](CCCCN)C(=O)N[C@H](C)C(=O)N[C@H](Cc1ccccc1)C(=O)N[C@H](Cc1ccc(O)cc1)C(=O)N[C@H](CC(=O)O)C(=O)N[C@H](CCCCN)C(=O)N[C@@H](C(=O)N[C@H](C)C(=O)N[C@H](CCC(=O)O)C(=O)N[C@H](CCCCN)C(=O)N[C@H](Cc1ccccc1)C(=O)N[C@H](CCCCN)C(=O)N[C@H](CCC(=O)O)C(=O)N[C@H](C)C(=O)N[C@H](Cc1ccccc1)C(N)=O)C(C)C | – | – | human, plasma | oral, 500 mg daily, 2 h post-dose, day 13 | – | plasma concentration | 246 ng/mL |

Some of these lines once more:
| Structure (SMILES) | target or system | test | system | conditions | scale | measurement | result |
| --- | --- | --- | --- | --- | --- | --- | --- |
| C=CC(=O)Nc1cc(Nc2nccc(-c3cn(C4CC4)c4ccccc34)n2)c(OC)cc1N(C)CCNC | – | freeze-thaw stability | rat plasma | 1 ng/mL, three freeze-thaw cycles | baseline: nominal concentration | relative error | -12.4% |
| COc1ccnc(C(=O)N[C@H]2COC(=O)[C@H](Cc3ccccc3)[C@@H](OC(=O)C(C)C)[C@H](C)OC2=O)c1O | – | aerobic dark soil incubation | sandy loam soil | 20 °C, modelling endpoint | – | DT50 | 29.3 days |
| CN1CCC[C@]1(C)/C=C/S(=O)(=O)NC(=O)Nc1c2c(cc3c1CCC3)CC=C2 | – | – | human, plasma | oral, 12.5 mg twice daily of parent drug, day 14, metabolite of dosed drug | – | Tmax at first steady-state dose | 2.5 h |
| COC1CN([C@H]2CC[C@H]([C@@]3(C)Oc4c(Cl)cc(C(=O)NCc5c(SC)cc(C)[nH]c5=O)c(C)c4O3)CC2)C1 | – | RNA-seq, item: FHIP1A | human, whole blood | dose not given, 24 h | baseline: pretreatment baseline | log2 fold change | 2.7 |
